Measurements of several laboratories.
Compare with care: the assays were run in different laboratories. ± marks the error that the study gave.

COc1ccnc(C(=O)NC(CO)C(=O)O)c1O (racemic)  KOC (FOCUS PEARL groundwater modelling; soil; geometric mean input): 315 mL/g
CCN1/C(=C/C(C)=O)Sc2ccc(F)cc21  diastolic blood pressure change (cynomolgus monkey; oral, 10 mg/kg, 24 h post-dose; relative to: pre-dose): 110 ± 9.4%
COc1c(N2C[C@@H]3CCCN[C@@H]3C2)c(F)cc2c(=O)c(C(=O)O)cn(C3CC3)c12  heart rate (male Hartley guinea pigs, anaesthetized; intravenous, 1 mg/kg over 10 min, after infusion): 236 ± 0.3 beats/min
O=C(Nc1cnccc1Cl)N1CCN(Cc2ccc3c(c2)OC(F)(F)O3)CC1  volunteers with adverse event (measured: Somnolence; healthy elderly humans; 100 mg once daily, 10 days): 0%
CO[C@H]1C[C@@H]2CC[C@@H](C)[C@@](O)(O2)C(=O)C(=O)N2CCCC[C@H]2C(=O)O[C@H]([C@H](C)C[C@@H]2CC[C@@H](OC(=O)NCCOCCOCCOCCOCCOCCOCCOCCOCCC(=O)N3CCc4cc(Cn5nc(-c6ccc7oc(N)nc7c6)c6c(N)ncnc65)ccc4C3)[C@H](OC)C2)C[C@@H](O)[C@H](C)/C=C(\C)[C@@H](O)[C@@H](OC)C(=O)[C@H](C)C[C@H](C)/C=C/C=C/C=C/1C  AUC(0-t) (human, plasma; intravenous, 3 mg, cycle 1 day 15, arithmetic mean): 155 ng·h/mL
C[C@@H](NC(=O)N1C(=O)[C@H](Cc2ccnc(N)c2)[C@H]1C(=O)O)C1CCCCC1  time to steady state (UPLC-MS/MS; healthy adult Chinese volunteers, plasma; continuous intravenous infusion, 1.0 mg/kg/h, day 1 of 5-day infusion, median): 1.5 h
O=C(COc1ccc(Cl)cc1)NC12CC(c3nnc([C@H]4C[C@@H](OC(F)(F)F)C4)o3)(C1)C2  participants with headache (human both sexes; oral, 200 mg once daily, 14 days): 28.6%
Cc1c(Cl)c(C)[n+]([O-])c(Cl)c1-c1noc(-c2cc(O)c(O)c([N+](=O)[O-])c2)n1  TEAEs causing discontinuation (healthy subjects; oral, dose not given, all subjects): 2.9%
N#Cc1ccc2c(c1)[C@H]1CCCN(C(=O)c3ccc4[nH]cnc4c3)[C@H]1C2  androstenedione level (human, male; 40 mg, end of trial): 4.3 nmol/L
C[C@@H]1CN(c2c(F)c(N)c3c(=O)c(C(=O)O)cn(C4CC4)c3c2F)C[C@H](C)N1  heart rate (male Hartley guinea pigs, anaesthetized; intravenous, 10 mg/kg over 10 min, after infusion): 201 ± 0.5 beats/min
O=C(Nc1nc2cccc(-c3ccc(CN4CCS(=O)(=O)CC4)cc3)n2n1)C1CC1  treatment-emergent adverse events (measured: vascular disorders; rheumatoid arthritis patients; oral, 30 mg once daily, 4 weeks, any relatedness): 5.9%
C=CC(=O)N(C)CCOc1c(N)ncnc1-c1cc(F)cc(NC(=O)c2ccc(C3CC3)cc2F)c1C  AUC (human, whole blood; oral, 10 mg once daily, day 12): 24 ng·h/mL
CC(=O)N(C)C1CCN(c2cc(F)cc(NC(=O)c3cc4c(F)ccc(C)c4[nH]3)c2)C1 (stereo not drawn)  plasma concentration (CD1 mouse, plasma; intravenous, 1 mg/kg, 2 h): 56.1 ng/mL
C=CC(=O)Nc1cc(Nc2nccc(-c3cn(C)c4ccccc34)n2)c(OCC(F)(F)F)nc1N(C)CCN(C)C  recovery (rapid equilibrium dialysis; human plasma; 1 µg/mL, time not given): 87.9%
O=C(O)c1ccc(O)cc1  CSF concentration (human CSF; concentration not given, mean): not detected
CNC(=O)c1ccc(-c2cnc3ncc(Cc4ccc5ncccc5c4)n3n2)cc1F  peripheral edema incidence (all grades) (CTCAE v4.0, any causality; human hepatocellular carcinoma patients; oral, 600 mg twice daily, expansion cohort at RP2D): 55%
CN[C@@H]1COc2c(S(=O)(=O)NC(=O)Nc3c4c(cc5c3CCC5)CCC4)cnn2C1  predose plasma concentration (human, plasma; oral, 900 mg twice daily, D7): 5780 ng/mL
CCN1CCN(Cc2ccc(NC(=O)c3ccc(C)c(NC(=O)c4cncc(-c5cccs5)c4)c3)cc2C(F)(F)F)CC1  mean plasma concentration (LC-MS/MS; C57BL/6 mouse, plasma; intraperitoneal, 20 mg/kg single dose, 24 h): 6 ng/mL
CO[C@H]1C[C@@H]2CC[C@@H](C)[C@@](O)(O2)C(=O)C(=O)N2CCCC[C@H]2C(=O)O[C@H]([C@H](C)C[C@@H]2CC[C@@H](O)[C@H](OC)C2)CC(=O)[C@H](C)/C=C(\C)[C@@H](O)[C@@H](OC)C(=O)[C@H](C)C[C@H](C)/C=C/C=C/C=C/1C  heart rate (healthy adult horses; oral, 0.06 mg/kg, 10 h): 33.5 ± 2.8 beats/min
Cc1ccc([C@@H]2O[C@H](CO)[C@@H](O)[C@H](O)[C@H]2O)cc1Cc1ccc(-c2ccc(F)cc2)s1  urinary potassium excretion change (Japanese type 2 diabetes patients; 100 mg, day 5, 24 h urine collection; relative to: baseline): 0.073 mEq
COc1cc(C(=O)N2CCC3(CC2)CC(=O)c2c(cnn2C(C)C)C3)cc(-c2ccc(C(=O)O)cc2)n1  percentage change from baseline (measured: total cholesterol; human, fasting serum; 30 mg every 12 h, day 13, adjusted geometric mean; relative to: baseline): -4.6%
CCN1CCN(Cc2ccc(Nc3ncc(F)c(-c4cc(F)c5nc6n(c5c4)[C@H](C)CCC6)n3)nc2)CC1  Tmax (human, phase Ia; day 28, steady state): 2 to 7 h
CCC(=O)N(CCC(c1ccc2c(c1)OCO2)c1ccccc1OC)Cc1ccccc1 (stereo not drawn)  MCHC (female athymic nude mouse, blood; i.p., 60 mg/kg twice daily, 14 days, group mean): 33.8 g/dL
O=C(NCc1ccc(CNC(=O)c2cc(=O)c(O)cn2O)cc1)c1csc2nc[nH]c(=O)c12  EC50 (haemolysis; human red blood cells; 1 h, 37 °C): > 100 µM
COc1ccc2nc([S@@+]([O-])Cc3ncc(CO)c(OC)c3C)[nH]c2c1  AUC(0-8 h) (human, dried plasma spots; 5 mg racemic omeprazole, added: fluvoxamine and voriconazole): 0.0436 µM·h
CCOc1c([C@H](C)n2nc(C)c3c(N)ncnc32)cc(Cl)c(F)c1[C@@H]1CNC(=O)C1  ECG observations (measured: QTcF change above 60 ms; previously treated B-cell malignancy; oral, 30 mg once daily, overall population; relative to: baseline): 0%
CNCc1ccc(-c2[nH]c3cc(F)cc4c3c2CCNC4=O)cc1  anaemia incidence (patients; oral, 360 mg twice daily, all grades): 50%
O=C(N[C@H](Cc1c[nH]c2ccccc12)C(=O)Nc1ccncc1)c1ccc(N2CCN(c3ccc(F)cc3F)CC2)cc1F  concentration (Swiss Webster mouse, female, intestine; oral, 50 mg/kg, 2 h, 20% Kolliphor vehicle): 140 µM
[18F]c1ccc(-c2ccc3c(c2)[nH]c2ccncc23)cn1  SUV (ex vivo biodistribution; APP/PS1 mouse, AD model, stomach; intravenous, 30 min): 1.6 ± 0.404
CN[C@H](CC(C)C)C(=O)N[C@H]1C(=O)N[C@@H](CC(N)=O)C(=O)N[C@H]2C(=O)N[C@H]3C(=O)N[C@H](C(=O)N[C@H](C(=O)O)c4cc(O)cc(O)c4-c4cc3ccc4O)[C@H](O)c3ccc(c(Cl)c3)Oc3cc2cc(c3O[C@@H]2O[C@H](CO)[C@@H](O)[C@H](O)[C@H]2O[C@H]2C[C@](C)(N)[C@H](O)[C@H](C)O2)Oc2ccc(cc2Cl)[C@H]1O  absorption rate constant (electrochemical aptamer sensor; male C57BL/6J mouse, hippocampus; intravenous bolus, 35 mg/kg): 0.08 h⁻¹
O=S(=O)(O)Oc1cc(CCO)ccc1O  CSF concentration (human CSF; concentration not given, mean): not detected
Cc1cc(NC2CCN(C(=O)OC3CCN(C(=O)/C=C/CN(C)C)C3)CC2)n2ncc(C(C)C)c2n1 (stereo not drawn)  patients with adverse event (Phase I dose escalation CTCAE v4.0, measured: platelet count decreased; patients with advanced solid tumours; dose not given, Total dosing grade 3 or higher): 7%
CN(CCC(=O)O)C(=O)c1ccc2c(c1)CC[C@@H]1[C@@H]2CC[C@]2(C)C(c3cncc(F)c3)=CC[C@@H]12  indirect bilirubin change (premenopausal women, endometriosis pain, serum; 60 mg twice daily, visit 5, median; relative to: baseline): 0.29 mg/dL
Nc1ncnc2c1c(-c1ccc(Oc3ccccc3)cc1)nn2[C@@H]1CCCN(C(=O)C(O)CO)C1 (stereo partly drawn)  sensitivity (measured: maximal concentration; B-LPD patients; hypertension risk threshold, ROC): 85.7%
CO[C@@H]1[C@H](OC(=O)N2CC(CCN3CCOCC3)C2)CC[C@]2(CO2)[C@H]1[C@@]1(C)O[C@@H]1CC=C(C)C  activated partial thromboplastin time (humans; subcutaneous, 0.2 mg twice weekly for 4 weeks, day 28; relative to: baseline): -1 ± 1.2 s
O=C(O)c1ccc(O)c(O[C@@H]2O[C@H](C(=O)O)[C@@H](O)[C@H](O)[C@H]2O)c1  CSF concentration (human CSF; concentration not given, mean): not detected
COc1ncc(-c2nc3c(n2C(C)C)[C@H](c2ccc(Cl)cc2)N(c2cc(Cl)cn(C)c2=O)C3=O)c(OC)n1  median half-life (human patients, plasma; oral, 50 mg, high-dose arm, cycle 1 day 1): 11 h
CC(C)(C(=O)N1CCOc2c(C#N)cncc2C1)C(F)F  subjects with tachycardia TEAE (human, both sexes; oral, 30 mg single dose): 0%
O=C1c2ccncc2C(=O)c2c1[nH]c1ccccc21  tissue concentration (Sprague-Dawley rat, male, lung; oral, 5 mg/kg, 24 h): 0.002 ± 0.001 nmol/mg
C=CC(=O)Nc1cc(Nc2nccc(-c3cn(C)c4ccccc34)n2)c(OC)cc1N(C)CCN(C)C  recovery (storage stability; human dried blood spot; 2 h, -80 °C, LQC level): 98.1%
CN(C(=O)n1cnc(-c2cccnc2)c1)C1CCCCC1  tissue concentration (Wistar rat, midbrain; oral, 10 mg/kg, 4 h, single dose): 37.3 ± 6.6 ng/g
NC1(C(=O)N[C@@H](CCO)c2ccc(Cl)cc2)CCN(c2nc[nH]c3nccc2-3)CC1  incidence of Anaemia (metastatic CRPC patients; 320 mg b.i.d., grade 3 to 4, treatment-related, added: enzalutamide 160 mg daily): 0%
NC/C(=C\F)COc1cccc(Cn2c(=S)[nH]c(=O)c3[nH]cnc32)c1  remaining compound (dog plasma; 1 µM, 1 h): 80%
CC(C)NCC(O)c1ccc(NS(C)(=O)=O)cc1 (racemic)  heart rate (male Hartley guinea pigs, anaesthetized; intravenous, 1 mg/kg over 10 min, after infusion): 176 ± 0.4 beats/min
O=C(Nc1ccc(OC(F)(F)Cl)cc1)c1cnc(N2CC[C@@H](O)C2)c(-c2ccn[nH]2)c1  grade ≥3 event rate (per laboratory record, measured: amylase increase; human patients; oral, dose not given, dose-finding study): 0.3%
Cc1ccc(C)c(OCCCC(C)(C)C(=O)O)c1  trough plasma concentration (human, plasma; oral, dose not given, day 17 predose, median): 1420 ng/mL
C[Si]1(C)O[Si](C)(C)O[Si](C)(C)O[Si](C)(C)O[Si](C)(C)O1  log KOW (regression; 1-octanol/water; 25 °C): 8.09
COc1ccc2c(=O)n(C)c(-c3ccccc3)nc2c1  tissue/plasma ratio (Sprague-Dawley rat, male, bladder; oral, 30 mg/kg, 4 h; relative to: bladder over plasma): 47.5
C[C@@H](Nc1cc(F)cc(F)c1)c1cc(C(=O)N(C)C)cc2c(=O)cc(N3CCOCC3)oc12  patients discontinuing for AE (CTCAE v4, measured: AST increased; patients with advanced solid tumours; oral, dose not given, phase I dose finding): 1.6%
O=C(O)CNC(=O)c1ccc(O)cc1  CSF concentration (human CSF; concentration not given, mean): not detected
Cn1cc(-c2ccc(-c3cncc(Cl)c3N3CCC4(CCNC4=O)CC3)cc2)cn1  fold change in expression (COLO 205; microarray, measured: TPBG; concentration not given, 2 h, gene set 5T4; relative to: untreated cells): 2.55
Cn1cc(Nc2nccc(-c3ccc4c(c3)CN(C3COC3)CC[C@H]4NC(=O)c3cn(C(C)(C)C)nn3)n2)cn1  non-switched memory B cell change (human, whole blood; 150 mg twice daily, day 7; relative to: pre-dose baseline): 15.7%
CN(CCC#N)C1CCN(C(=O)Cn2cc(NC(=O)c3cnn4cccnc34)c(-c3cc(Cl)ccc3OC(F)F)n2)CC1  reticulocyte count change (human, single ascending dose; 5 mg, day 4; relative to: baseline): 3.3 10⁹/L
CNC(=O)c1ccc(-c2cnc3ncc(Cc4ccc5ncccc5c4)n3n2)cc1F  Urticaria dose reduction/interruption (Japanese patients; oral, 400 mg, any grade): 2%
CC/C(=C(\c1ccccc1)c1ccc(OCCN(C)C)cc1)c1ccccc1  heart rate (male Hartley guinea pigs, anaesthetized; intravenous, 3 mg/kg group, baseline before infusion): 237 ± 0.4 beats/min
C[C@@H](N)C1CCN(S(=O)(=O)c2cccc3cnccc23)CC1  participants with photophobia (healthy volunteers; 25 mg, fasted): 0%
CCCCCCC#Cc1cncc(-c2nnc(SCc3ccc([N+](=O)[O-])cc3)n2C)c1  CC50 (African green monkey cells; 72 h): 27 ± 5.43 µM

A few entries again:
C=CC(=O)Nc1cc(Nc2nccc(-c3cn(C)c4ccccc34)n2)c(OCC(F)(F)F)nc1N(C)CCN(C)C  recovery (rapid equilibrium dialysis; human plasma; 1 µg/mL, time not given): 87.9%
O=C(O)c1ccc(O)cc1  CSF concentration (human CSF; concentration not given, mean): not detected
CNC(=O)c1ccc(-c2cnc3ncc(Cc4ccc5ncccc5c4)n3n2)cc1F  peripheral edema incidence (all grades) (CTCAE v4.0, any causality; human hepatocellular carcinoma patients; oral, 600 mg twice daily, expansion cohort at RP2D): 55%
CN[C@@H]1COc2c(S(=O)(=O)NC(=O)Nc3c4c(cc5c3CCC5)CCC4)cnn2C1  predose plasma concentration (human, plasma; oral, 900 mg twice daily, D7): 5780 ng/mL
CCN1CCN(Cc2ccc(NC(=O)c3ccc(C)c(NC(=O)c4cncc(-c5cccs5)c4)c3)cc2C(F)(F)F)CC1  mean plasma concentration (LC-MS/MS; C57BL/6 mouse, plasma; intraperitoneal, 20 mg/kg single dose, 24 h): 6 ng/mL
CO[C@H]1C[C@@H]2CC[C@@H](C)[C@@](O)(O2)C(=O)C(=O)N2CCCC[C@H]2C(=O)O[C@H]([C@H](C)C[C@@H]2CC[C@@H](O)[C@H](OC)C2)CC(=O)[C@H](C)/C=C(\C)[C@@H](O)[C@@H](OC)C(=O)[C@H](C)C[C@H](C)/C=C/C=C/C=C/1C  heart rate (healthy adult horses; oral, 0.06 mg/kg, 10 h): 33.5 ± 2.8 beats/min
